Measurements pooled from the literature.
Lines come from different studies, so protocols differ. ± gives the spread as reported.
VCP: Transitional endoplasmic reticulum ATPase (VCP, Homo sapiens, UniProt P55072)
Sequence of UniProt P55072 (whole entry, looked up): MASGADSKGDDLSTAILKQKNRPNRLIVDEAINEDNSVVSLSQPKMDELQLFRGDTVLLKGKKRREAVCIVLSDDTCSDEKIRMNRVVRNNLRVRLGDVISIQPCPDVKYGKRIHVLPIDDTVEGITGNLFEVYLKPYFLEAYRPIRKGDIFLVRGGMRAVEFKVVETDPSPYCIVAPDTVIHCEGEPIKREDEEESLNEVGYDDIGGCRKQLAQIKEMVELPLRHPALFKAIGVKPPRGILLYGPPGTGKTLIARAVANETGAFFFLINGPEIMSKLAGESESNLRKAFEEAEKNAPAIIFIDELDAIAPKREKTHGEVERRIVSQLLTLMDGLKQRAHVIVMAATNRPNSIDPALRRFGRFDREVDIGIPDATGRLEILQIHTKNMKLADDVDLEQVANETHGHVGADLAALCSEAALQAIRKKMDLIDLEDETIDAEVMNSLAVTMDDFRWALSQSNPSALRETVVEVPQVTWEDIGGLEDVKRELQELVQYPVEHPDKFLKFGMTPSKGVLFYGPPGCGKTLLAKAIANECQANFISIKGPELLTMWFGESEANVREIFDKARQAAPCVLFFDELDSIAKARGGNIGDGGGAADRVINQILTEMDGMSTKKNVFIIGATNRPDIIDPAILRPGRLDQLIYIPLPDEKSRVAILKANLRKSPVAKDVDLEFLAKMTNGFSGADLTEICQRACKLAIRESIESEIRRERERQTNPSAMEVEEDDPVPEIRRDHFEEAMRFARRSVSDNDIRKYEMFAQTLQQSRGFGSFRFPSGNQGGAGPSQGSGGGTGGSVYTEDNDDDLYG
HCK: Tyrosine-protein kinase HCK (HCK, Homo sapiens, UniProt P08631)
Sequence of UniProt P08631 (whole entry, looked up): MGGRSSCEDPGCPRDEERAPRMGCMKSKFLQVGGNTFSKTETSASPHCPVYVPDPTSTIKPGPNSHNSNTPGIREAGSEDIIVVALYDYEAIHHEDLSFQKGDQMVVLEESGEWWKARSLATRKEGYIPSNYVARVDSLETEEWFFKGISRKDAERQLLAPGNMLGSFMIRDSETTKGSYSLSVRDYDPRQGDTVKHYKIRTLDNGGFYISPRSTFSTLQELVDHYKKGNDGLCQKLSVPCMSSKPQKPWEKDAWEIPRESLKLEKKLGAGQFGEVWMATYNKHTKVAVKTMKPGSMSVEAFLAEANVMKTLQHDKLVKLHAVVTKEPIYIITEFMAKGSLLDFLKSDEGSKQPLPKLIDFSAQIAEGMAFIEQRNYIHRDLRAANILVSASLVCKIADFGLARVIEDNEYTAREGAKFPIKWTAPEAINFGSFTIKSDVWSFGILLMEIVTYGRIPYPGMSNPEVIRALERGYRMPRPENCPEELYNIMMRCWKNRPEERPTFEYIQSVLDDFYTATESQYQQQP
Sequence of UniProt Q9R1P1 (whole entry, looked up): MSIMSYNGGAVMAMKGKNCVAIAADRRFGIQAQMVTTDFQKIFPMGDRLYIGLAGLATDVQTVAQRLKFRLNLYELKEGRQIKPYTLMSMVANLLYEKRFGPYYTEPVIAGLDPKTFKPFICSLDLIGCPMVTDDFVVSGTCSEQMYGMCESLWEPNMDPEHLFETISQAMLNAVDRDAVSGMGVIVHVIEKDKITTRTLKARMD
Sequence of UniProt Q7Z5P4 (whole entry, looked up): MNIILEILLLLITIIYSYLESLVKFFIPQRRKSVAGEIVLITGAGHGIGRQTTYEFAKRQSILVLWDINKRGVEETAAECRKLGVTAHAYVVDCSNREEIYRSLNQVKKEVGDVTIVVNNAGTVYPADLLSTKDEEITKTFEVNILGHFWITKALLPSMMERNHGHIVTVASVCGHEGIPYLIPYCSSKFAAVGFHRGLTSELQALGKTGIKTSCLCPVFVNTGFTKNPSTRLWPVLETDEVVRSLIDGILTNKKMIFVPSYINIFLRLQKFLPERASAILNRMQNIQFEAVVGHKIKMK
Sequence of UniProt Q9Y2I7 (whole entry, looked up): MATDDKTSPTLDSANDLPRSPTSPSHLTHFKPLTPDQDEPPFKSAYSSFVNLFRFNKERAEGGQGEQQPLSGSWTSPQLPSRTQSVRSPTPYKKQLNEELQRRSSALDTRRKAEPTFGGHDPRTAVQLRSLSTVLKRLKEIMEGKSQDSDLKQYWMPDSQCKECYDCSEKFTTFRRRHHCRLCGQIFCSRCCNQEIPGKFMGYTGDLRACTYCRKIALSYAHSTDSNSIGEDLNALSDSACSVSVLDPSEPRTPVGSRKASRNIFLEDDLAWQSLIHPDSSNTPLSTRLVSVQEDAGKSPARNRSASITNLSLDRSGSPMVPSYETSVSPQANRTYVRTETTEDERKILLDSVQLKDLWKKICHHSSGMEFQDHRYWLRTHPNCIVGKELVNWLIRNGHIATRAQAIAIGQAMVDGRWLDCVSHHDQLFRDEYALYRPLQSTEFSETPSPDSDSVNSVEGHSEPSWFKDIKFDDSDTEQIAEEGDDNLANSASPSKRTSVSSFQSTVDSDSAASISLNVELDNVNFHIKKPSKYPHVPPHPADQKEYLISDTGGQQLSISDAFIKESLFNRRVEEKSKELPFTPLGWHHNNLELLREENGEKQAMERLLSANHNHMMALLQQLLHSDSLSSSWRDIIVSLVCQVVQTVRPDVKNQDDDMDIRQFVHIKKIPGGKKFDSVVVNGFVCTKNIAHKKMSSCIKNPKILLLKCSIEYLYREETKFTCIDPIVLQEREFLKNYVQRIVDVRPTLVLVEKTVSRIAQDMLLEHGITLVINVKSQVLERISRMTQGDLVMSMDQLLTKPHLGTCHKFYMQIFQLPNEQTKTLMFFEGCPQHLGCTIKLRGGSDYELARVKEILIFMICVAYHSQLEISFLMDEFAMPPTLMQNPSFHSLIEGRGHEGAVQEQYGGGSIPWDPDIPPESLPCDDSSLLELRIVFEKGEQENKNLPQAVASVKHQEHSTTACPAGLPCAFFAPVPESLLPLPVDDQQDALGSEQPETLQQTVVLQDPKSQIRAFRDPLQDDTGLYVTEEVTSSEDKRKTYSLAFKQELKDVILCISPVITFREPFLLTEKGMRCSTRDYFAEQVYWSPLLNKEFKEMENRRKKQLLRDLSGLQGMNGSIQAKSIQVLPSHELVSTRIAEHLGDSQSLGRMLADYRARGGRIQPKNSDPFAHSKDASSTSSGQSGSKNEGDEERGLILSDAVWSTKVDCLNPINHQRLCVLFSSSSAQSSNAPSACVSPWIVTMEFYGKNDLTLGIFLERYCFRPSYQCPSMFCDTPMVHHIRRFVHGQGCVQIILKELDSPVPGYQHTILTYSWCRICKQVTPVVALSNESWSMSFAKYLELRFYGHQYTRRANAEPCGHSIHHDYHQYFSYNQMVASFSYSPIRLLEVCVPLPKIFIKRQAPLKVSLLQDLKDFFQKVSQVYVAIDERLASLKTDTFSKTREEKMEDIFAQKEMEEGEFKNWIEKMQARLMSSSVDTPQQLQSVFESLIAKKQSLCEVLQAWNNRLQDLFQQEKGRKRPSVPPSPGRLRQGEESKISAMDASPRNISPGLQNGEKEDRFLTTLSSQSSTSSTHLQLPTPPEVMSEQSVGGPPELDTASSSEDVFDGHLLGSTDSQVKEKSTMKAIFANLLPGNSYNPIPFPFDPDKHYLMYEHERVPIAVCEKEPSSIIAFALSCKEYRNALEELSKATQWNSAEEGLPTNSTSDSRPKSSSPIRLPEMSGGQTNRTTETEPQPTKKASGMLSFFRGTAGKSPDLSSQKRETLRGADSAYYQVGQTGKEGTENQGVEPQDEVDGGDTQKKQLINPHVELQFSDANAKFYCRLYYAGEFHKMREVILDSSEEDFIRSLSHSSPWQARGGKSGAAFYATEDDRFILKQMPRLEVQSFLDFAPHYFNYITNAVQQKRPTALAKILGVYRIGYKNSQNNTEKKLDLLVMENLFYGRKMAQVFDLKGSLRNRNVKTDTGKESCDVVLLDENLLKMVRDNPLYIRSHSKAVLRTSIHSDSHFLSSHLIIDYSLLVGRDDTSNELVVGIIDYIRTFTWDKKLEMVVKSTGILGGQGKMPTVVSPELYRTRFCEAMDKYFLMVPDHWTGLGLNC
Sequence of UniProt O35955 (whole entry, looked up): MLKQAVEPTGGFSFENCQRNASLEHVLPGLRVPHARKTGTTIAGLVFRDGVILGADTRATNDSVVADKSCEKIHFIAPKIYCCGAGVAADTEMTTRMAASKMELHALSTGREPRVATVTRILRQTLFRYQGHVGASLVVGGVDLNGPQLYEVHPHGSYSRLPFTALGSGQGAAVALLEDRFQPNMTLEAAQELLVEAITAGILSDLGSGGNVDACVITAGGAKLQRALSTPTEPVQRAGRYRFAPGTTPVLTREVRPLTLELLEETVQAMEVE
Sequence of UniProt P16068 (whole entry, looked up): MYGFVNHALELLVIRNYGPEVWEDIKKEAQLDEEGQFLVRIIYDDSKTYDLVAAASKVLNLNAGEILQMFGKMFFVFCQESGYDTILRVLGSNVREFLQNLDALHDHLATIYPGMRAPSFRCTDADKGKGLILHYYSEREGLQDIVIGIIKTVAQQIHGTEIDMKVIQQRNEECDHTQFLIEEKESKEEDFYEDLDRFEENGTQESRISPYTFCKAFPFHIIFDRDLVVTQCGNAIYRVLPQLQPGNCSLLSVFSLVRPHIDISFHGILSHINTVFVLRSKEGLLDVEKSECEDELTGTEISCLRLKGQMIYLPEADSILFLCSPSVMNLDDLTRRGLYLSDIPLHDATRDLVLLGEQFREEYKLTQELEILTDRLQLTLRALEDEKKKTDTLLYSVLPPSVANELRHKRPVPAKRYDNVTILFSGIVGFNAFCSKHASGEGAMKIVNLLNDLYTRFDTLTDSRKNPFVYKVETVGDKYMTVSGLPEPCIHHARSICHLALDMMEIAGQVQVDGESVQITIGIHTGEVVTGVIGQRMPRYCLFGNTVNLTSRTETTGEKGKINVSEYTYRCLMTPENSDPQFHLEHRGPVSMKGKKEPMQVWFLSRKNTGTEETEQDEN

`COc1ccc(Nc2nc(NCc3ccccc3)c3ccccc3n2)cc1` gave an IC50 of 3800 ± 500 nM (VCP; enzyme activity, inhibitor).
With `Cc1ccc(-n2sc3ccccc3c2=O)cc1` the IC50 was greater than 50000 nM (HCK; inhibitor, Z'-Lyte kinase; without Nef).
The IC50 of `Cn1cc2c(C(=O)O)ccc(NS(=O)(=O)c3ccc(OCC4CCC4)c(Cl)c3)c2n1` is reported as 280 nM (17-beta-hydroxysteroid dehydrogenase 13 (Homo sapiens, UniProt Q7Z5P4); estradiol turnover, inhibitor, LC-MS; together with: β-estradiol).
The IC50 of `CC[C@@H]1[C@H](F)C(=O)N[C@@H]1COc1nccc2cc(C(N)=O)c(OC)cc12` is reported as greater than 5000 nM (PIKFYVE (Homo sapiens, UniProt Q9Y2I7); ATP-site binding, ActivX kinase profiling; THP-1 cell lysate; PIP5K3 ATP-site probe peptide).
With `CNS(=O)(=O)c1ccccc1Nc1nc(Nc2ccc(CO)nc2)ncc1Cl` the IC50 was 47.2 ± 3.44 nM (IRAK4 (Homo sapiens, UniProt Q9NWZ3); cell-based).
`CC[C@H](C)[C@H](NC(=O)[C@H](CS)NC(=O)[C@H](CCC(=O)O)NC(=O)[C@H](C)NC(=O)[C@@H](NC(=O)[C@@H](N)CCCNC(=N)N)[C@@H](C)CC)C(=O)N[C@@H](CC(C)C)C(=O)NCC(=O)N[C@@H](CCSC)C(=O)O` gave an IC50 of 1680 nM (HLA class I histocompatibility antigen, A alpha chain, allele A*02:06 (Homo sapiens, UniProt P04439); binding, competitor, radioligand competition; two days, room temperature, HLA-A*02:06).
For `C=C1CCC[C@H]2[C@](C)(CC3=C(O)C(=O)C=C(OC)C3=O)[C@@H](C)CC[C@]12C`, the IC50 was 51000 ± 2600 nM (Gag-Pol polyprotein, RNase H domain (gag-pol, Human immunodeficiency virus type 1 group M subtype B, UniProt P04585); RNase H activity, inhibitor; 2 h, 37 °C).
`COc1cccc2c(NCc3ccccn3)nc(N3CCOc4ccccc43)nc12` has an IC50 of 19000 ± 5000 nM (VCP; enzyme activity, inhibitor).
For `O=C1N[C@H](c2cncc(C#Cc3ccccc3)c2)[C@@H](c2ccccc2Cl)O1`, the IC50 was 66.2 nM (Metabotropic glutamate receptor 5 (Macaca mulatta, UniProt A0ACM8QRY8); receptor occupancy, PET; rhesus monkey, total plasma concentration).
With `COc1ccc(-c2nc(NCc3ccccc3)c3ccccc3n2)cc1` the IC50 was 1600 ± 300 nM (VCP; enzyme activity, inhibitor).
`Fc1ccc(-c2nc(C3CCCCC3)[nH]c2-c2ccncc2)cc1` gave an IC50 of 245 ± 40.2 nM (TGFBR2 (Homo sapiens, UniProt P37173); inhibitor).
For `CC(C)NC(=O)COc1cccc(-c2nc(Nc3ccc4[nH]ncc4c3)c3ccccc3n2)c1`, the IC50 was 861 nM (UGT1A9 (Homo sapiens, UniProt O60656); enzyme activity, inhibitor; recombinant UGT microsomes; together with: niflumic acid).
For `CN(c1ccccc1)c1nc(NCc2ccccc2)c2ccccc2n1`, the IC50 was greater than 30000 nM (VCP; enzyme activity, inhibitor).
For `CC(C)C[C@H](NC(=O)[C@H](CCc1ccccc1)NC(=O)CN1CCOCC1)C(=O)N[C@@H](Cc1ccccc1)C(=O)N[C@@H](CC(C)C)C(=O)[C@@]1(C)CO1`, the IC50 was 38.2 ± 2.03 nM (Psmb10/Psmb3 (Mus musculus, UniProt O35955+Q9R1P1); proteasome subunit activity; Ba/F3 BCR-ABL1 H396P; 1 h pulse).
For `CC/C=C\C/C=C\C/C=C\C/C=C\C/C=C\CCCC(=O)O`, the IC50 was greater than 100000 nM (DNA polymerase I, Klenow fragment (polA, Escherichia coli, UniProt P00582); enzyme activity, inhibitor; together with: 0.05 units enzyme).
`Nc1nc2c([nH]c(=O)n2[C@@H]2O[C@H](CO[P@@](=O)(O)O[P@@](=O)(O)OP(=O)(O)O)[C@@H](O)[C@H]2O)c(=O)[nH]1` has an IC50 of 288000 nM (GUCY1B1/GUCY1A1 (Bos taurus, UniProt P16068+P19687); NO-stimulated cGMP formation, inhibitor).
`COc1cc2nccc(Oc3ccc(NC(=O)c4cc5c(n(-c6ccccc6)c4=O)CCCC5=O)nc3)c2cc1OC` gave an IC50 of greater than 100 nM (HCK; cell viability, CellTiter-Glo; Ba/F3 expressing recombinant kinase; 48 h).
`Cc1ccc(Nc2nc(Nc3ccc(C)cc3)c3ccccc3n2)cc1` has an IC50 of 54000 ± 19000 nM (VCP; enzyme activity, inhibitor).
